Assay results of several laboratories.
Every numbered part comes from another study and shows a few of its results, in no order.

Series 1 — technique: aptamer microarray, sandwich; molecule type: DNA with 2'F-ANA; matrix: in vitro; concentration: 200 nM; with: Cy3 exosite-II aptamer, 400 nM; direction: higher = stronger binding; oligonucleotide: GGTTGGTGTGGTTGG
Target: Prothrombin, mature alpha-thrombin (F2, Homo sapiens, UniProt P00734)
Notes: whole 15-mer aptamer, many near background
`2'F-ANA at 1 3 4 6 9 10 12`: “mean fluorescence intensity” 82.8 a.u.
`2'F-ANA at 3 7 8 9 12 14` — result for “mean fluorescence intensity”: 793 a.u.
Under “mean fluorescence intensity”, `2'F-ANA at 4 6 11 12 13` is recorded as 318 a.u.
`2'F-ANA at 1 2 3 5 6 8 9 11 13 14` — result for “mean fluorescence intensity”: 45.5 a.u.
Under “mean fluorescence intensity”, `2'F-ANA at 2 3 9 10 11 12` is recorded as 346 a.u.
Under “mean fluorescence intensity”, `2'F-ANA at 1 5 7 9 12 13 14` is recorded as 47.1 a.u.
Under “mean fluorescence intensity”, `2'F-ANA at 4 6 11 12 15` is recorded as 338 a.u.
`2'F-ANA at 2 5 6 7 12 13 14 15`: “mean fluorescence intensity” 88.2 a.u.
Under “mean fluorescence intensity”, `2'F-ANA at 1 2 5 6 8 9 10 11 13 14 15` is recorded as 117 a.u.
For `2'F-ANA at 5 6 8 9 10 13`, “mean fluorescence intensity” read 47 a.u.
`2'F-ANA at 5 7 9 12 13`: “mean fluorescence intensity” 107 a.u.
For `2'F-ANA at 1 4 7 8 10 11`, “mean fluorescence intensity” read 50.1 a.u.
`2'F-ANA at 5 8 14 15`: “mean fluorescence intensity” 48.4 a.u.
For `2'F-ANA at 1 3 4 7 11 12 15`, “mean fluorescence intensity” read 300 a.u.
`2'F-ANA at 3 4 7 9 11 13 14 15` — result for “mean fluorescence intensity”: 277 a.u.
For `2'F-ANA at 2 3 5 10 11 12 14`, “mean fluorescence intensity” read 55.9 a.u.
`2'F-ANA at 1 3 4 5 6 9 10 11 12 13` — result for “mean fluorescence intensity”: 78.8 a.u.
`2'F-ANA at 1 2 4 5 7 8 10 11 13 15`: “mean fluorescence intensity” 45.3 a.u.
Under “mean fluorescence intensity”, `2'F-ANA at 1 2 3 12 13 14` is recorded as 89.7 a.u.
Under “mean fluorescence intensity”, `2'F-ANA at 2 4 6 8 10 13 14 15` is recorded as 61.8 a.u.
`2'F-ANA at 1 4 14` — result for “mean fluorescence intensity”: 49.1 a.u.
`2'F-ANA at 1 3 5 6 8 9 10 13 14` — result for “mean fluorescence intensity”: 63.6 a.u.

Series 2 — technique: protein-binding microarray; molecule type: double-stranded DNA, one strand shown; matrix: in vitro; concentration: 2200 nM top; notes: 60-bp whole probe; with: salmon DNA 0.4 mg/ml; relative to: random background probes; direction: higher = stronger binding; all sequences stand within: GCCTAGCAC … GTCTTGATTCGCTTGACGCTGCTG
Target: Interferon regulatory factor 7, full length, phosphomimetic (IRF7, Homo sapiens, UniProt Q92985, residues 1-503, S471D/S472D/S475D/S476D/S477D/S483D/S484D/S487D)
UniProt Q92985, sequence (whole entry, unmodified, looked up): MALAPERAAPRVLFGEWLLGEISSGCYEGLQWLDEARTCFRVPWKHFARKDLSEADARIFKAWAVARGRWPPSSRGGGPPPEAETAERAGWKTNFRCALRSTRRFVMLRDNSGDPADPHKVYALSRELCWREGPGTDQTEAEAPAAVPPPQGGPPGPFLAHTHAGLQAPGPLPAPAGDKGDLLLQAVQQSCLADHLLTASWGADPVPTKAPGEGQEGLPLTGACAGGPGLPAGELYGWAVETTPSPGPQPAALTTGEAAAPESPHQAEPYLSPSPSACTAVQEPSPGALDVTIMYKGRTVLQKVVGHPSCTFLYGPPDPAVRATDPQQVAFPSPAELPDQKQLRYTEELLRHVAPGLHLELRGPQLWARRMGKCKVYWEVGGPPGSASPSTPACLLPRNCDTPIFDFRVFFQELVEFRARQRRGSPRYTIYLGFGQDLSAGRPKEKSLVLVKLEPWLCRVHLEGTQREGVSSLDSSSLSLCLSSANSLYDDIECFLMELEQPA
Under “fitted relative affinity”, `GACCGTTTCGGTCTCGGGACGTGCTAG` is recorded as 4.72 z-score.
`TCAGAACTGGGGTATCGATTAGTGCTA` — result for “fitted relative affinity”: 0.12 z-score.
For `GACGGTATCGACTTTCGCGACGTGCTA`, “fitted relative affinity” read 1.52 z-score.
`TTAGGTTTCGGGTATCGGTCAGTGCTA` — result for “fitted relative affinity”: 6.07 z-score.
Under “fitted relative affinity”, `AGCAGTTGGACCTCTCAGCCAGTGCTA` is recorded as -0.657 z-score.
Under “fitted relative affinity”, `TCACCATTATATTTTAAACTGTGCTAG` is recorded as 0.914 z-score.
`GACGGTTTCGGTTTCGGGATGTGCTAG`: “fitted relative affinity” 15.4 z-score.
`TTAGATATCGGGACTGGACTAGTGCTA` — result for “fitted relative affinity”: -0.54 z-score.
`GACGGTATCGGGACTCGGGACGTGCTA`: “fitted relative affinity” -0.292 z-score.
`TTAGGTATAGGTATCGGTTAGTGCTAG` — result for “fitted relative affinity”: 0.142 z-score.
`TTAGGTATCGGTTTCGATTAGTGCTAG` — result for “fitted relative affinity”: 5.8 z-score.
`TTGCGTCTGGGTGTTTTCTAGTGCTAG` — result for “fitted relative affinity”: 1.02 z-score.
For `GAGGATATCAGTATCGAGACGTGCTAG`, “fitted relative affinity” read 0.0478 z-score.
`GACGATATTAGACTGGAGACGTGCTAG` — result for “fitted relative affinity”: -0.0894 z-score.
`GACGAACAGAGTCTCGAGACGTGCTAG`: “fitted relative affinity” -0.0085 z-score.
`GACGGACTGCTAATGCTGACGTGCTAG`: “fitted relative affinity” -0.32 z-score.
Under “fitted relative affinity”, `TTAGATTCCAGTTTGGATTAGTGCTAG` is recorded as 0.831 z-score.

Series 3 — technique: RNA Bind-n-Seq; molecule type: RNA; matrix: in vitro; concentration: not given; relative to: input RNA pool; direction: higher = stronger binding
Target: RING finger protein unkempt homolog, zinc fingers 1-6, GST-SBP tag (UNK, Homo sapiens, UniProt Q9C0B0, residues 30-357)
UniProt Q9C0B0, sequence (30-357, looked up): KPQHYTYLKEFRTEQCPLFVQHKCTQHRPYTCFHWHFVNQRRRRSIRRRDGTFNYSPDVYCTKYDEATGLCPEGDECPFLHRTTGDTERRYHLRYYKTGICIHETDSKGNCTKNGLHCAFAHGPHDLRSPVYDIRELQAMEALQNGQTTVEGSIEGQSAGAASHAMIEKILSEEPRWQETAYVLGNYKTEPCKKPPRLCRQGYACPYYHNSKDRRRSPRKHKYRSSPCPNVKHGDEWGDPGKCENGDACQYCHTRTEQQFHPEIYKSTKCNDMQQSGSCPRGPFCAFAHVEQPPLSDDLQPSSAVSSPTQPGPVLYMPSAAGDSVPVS
Notes: RNA with constant flanks, human and mouse sites, ends assumed
For `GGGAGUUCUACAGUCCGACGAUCGGACGGUGCUGGUUUUCUACCUGCUUACUCUUGUUCUCACAGGCAGGGGACCAGCAACCCUAGAUAUUUCUGGAACUUCUUUGACCUGGAAGGAACCUUUGGGAGCUGUGACUCCCUGUGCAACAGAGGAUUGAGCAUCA`, the bound/input enrichment was 0.397 ratio.
`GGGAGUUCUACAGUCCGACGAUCCCUUAUCACGUGUGUAAGGGGAAAAAGGUUUAAACAAGUCUCUUAAGUGGUGUUUCCUCACCGAUGGAGAAUUACUUCCAAGCAGAAGCUUACAACCUGGACAAGGUGUUAGAUGAAUUUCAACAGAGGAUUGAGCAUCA` gave a bound/input enrichment of 0.182 ratio.
For `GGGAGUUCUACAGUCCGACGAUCAACCAAUCAAAAACCACUCCUUUUAAAGAUUGCAAAGUAUUAAAACAAAGGCCAAGGUUUGUAGCCCUGAAGAAGCAGCCAUCCUAUAUUGGAGGACAUGAGGGCUUAGAAUUAAGAGAUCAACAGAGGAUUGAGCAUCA`, the bound/input enrichment was 0.582 ratio.
For `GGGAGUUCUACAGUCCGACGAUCCAAACGUUGUUGGGAAUAAUUGUGAGGAUGAAGUUUUUGCUGCUGCAGCAGAAGUACCUAGAAUACCUGGAGGAUGGCAAGGUCCUGGAGGCACUUCAAGUUCUACGCUGUGAAUUGACGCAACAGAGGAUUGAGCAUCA`, the bound/input enrichment was 0.215 ratio.
The bound/input enrichment of `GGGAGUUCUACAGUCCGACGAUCGAGAACAAGCUCUGGUGUCCAUUAGUUCAAGAAAUCCUGUGUUGAAGCAUAAUGUUGCUACAUAAGCCAGAGAAAGGAAGAGCGCUGCCAGGCCUGAUCGUUGGUAGUGGCAUGGAGGACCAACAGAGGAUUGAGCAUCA` is reported as 0.455 ratio.
`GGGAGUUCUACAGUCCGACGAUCAUUAUCACAGAAGAACCUGAGAUUGGCAAUAUAGAAAAACCAGUAGAAAUUUUUCAUAUAAUAGAACAUUUUUGUCUUGGUAGAAGACGCCUUCAUCUCUUUGGGAGAGAUAGCACUAUCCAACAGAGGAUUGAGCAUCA` gave a bound/input enrichment of 32.2 ratio.
`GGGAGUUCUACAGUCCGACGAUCAAGCAGCAGUGGCUGACGCUCUGCUGUUAGGAGACGCCAGGAGCAAGAAGAAGCCUGUGAGAAGGAGAUACGAGCCCUAUGGAAUGUACUCUGAUGAUGAUGCCAACAGUGAUGCCUCCACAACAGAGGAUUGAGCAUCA` has a bound/input enrichment of 0.113 ratio.
The bound/input enrichment of `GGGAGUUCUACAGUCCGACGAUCGCCCUCAACUUCUCCGUGUUCUACUAUGAGAUCCAGAAUGCACCUGAGCAAGCCUGCCUCUUAGCCAAACAAGCCUUCGAUGAUGCCAUAGCUGAGCUGGACACACUAAACGAGGAUUCCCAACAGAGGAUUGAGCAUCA` is reported as 0.256 ratio.

Series 4 — technique: RNA Bind-n-Seq; molecule type: RNA; matrix: in vitro; concentration: 365 nM; relative to: no-protein control; direction: higher = stronger binding
Target: RNA binding protein fox-1 homolog 2, RRM domain, GST-SBP tag (RBFOX2, Homo sapiens, UniProt O43251-10, residues 100-194)
Notes: natural RNA segment, single round, ends assumed
For `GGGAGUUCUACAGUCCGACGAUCUCUAGCCAAAACAAAUUGCCAGUAUGGUUGAGGAAUUGAAUAUCAGAUGGCAUGCAGUCUCCCCUCCCCUCCCCUAUCAAGGACAGUAGAAGCUGCAAACCUCUUCUCAGUGGAAUUCUCGGGUGCCAA`, “RBNS enrichment (R)” read 0.996.
`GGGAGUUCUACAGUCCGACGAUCAGGAGAUCUGGGGGAAGAUAUUGCCAGUAAUUAAACAUGAAUGAAGAUAGGUUGUAAACUGAAUGCUGUGAUAAUACUCUGUAUUCUUUAUGGAAAAUGUUGUCCUGUACUGGAAUUCUCGGGUGCCAA`: “RBNS enrichment (R)” 3.03.
`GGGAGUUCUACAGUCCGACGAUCAGAGGUAGCCACAGUCCUGGAGUACCAUAGGGUGAUGUUCCUUCUGCAUGCAUCUGCAGGGCCUGUGAGAUCUGGUGUAAAAAGAGACAUGACAUGUGGAGAUGGGACUUUGGAAUUCUCGGGUGCCAA`: “RBNS enrichment (R)” 7.47.
`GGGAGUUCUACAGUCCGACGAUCAGGAUAGCCAGCUUGCUUCUCUGUUAUGUUACCAUGCAUUUCUAAAACCACUCCAGCUGUUAAUCUGUUUGCGCCUCCAUCCAUGGACUUGUUUCUGUUCUUUUCCAUCCUGGAAUUCUCGGGUGCCAA`: “RBNS enrichment (R)” 0.562.
`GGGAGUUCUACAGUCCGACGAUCUUGCUACUGCGGACCUGUGGCUCCCUUGGCCAGCCAUGUUUUGGGAAAGAGUUCACAUCUUAGGUUUGAAAGGGAGCAUUUGAGUCUUCUCACUGACCUCUUCCUAGCAGUGGAAUUCUCGGGUGCCAA` — result for “RBNS enrichment (R)”: 2.2.
Under “RBNS enrichment (R)”, `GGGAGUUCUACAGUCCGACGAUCUAUACCUAUUACAUUUCCAGGCAGUAUCCCUAAGAUGAGAUCCUGGAGAAAGGACUAGGGGAAGUAUCUUUCUGGAUGCUUGUGGUCCCAGAAGGGUACUUUCUGUGUCAUGGAAUUCUCGGGUGCCAA` is recorded as 1.89.
`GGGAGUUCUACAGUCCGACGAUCCUCGUGAUCUUAAAAGGCAUUCUGAUGAUAAAUUUAGAAUUUUCAUCUAUAAAAUUUAGAACUCUAAUCCAUAAAGUUAGAAUUGAGCUAAUAGAGUGGUAUGACAUGGCUGGAAUUCUCGGGUGCCAA`: “RBNS enrichment (R)” 0.489.
Under “RBNS enrichment (R)”, `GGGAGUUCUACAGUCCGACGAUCCCUAAUUCAUCAUAUUGGUUUAAGCAUGCUGCCUCCUGAGAGCCACAGUGUCAUAUACAGAUACUUCCGCAGGUCCUUAGAGUUCAAAGGGUUUUAAUCCAGGACAUAAGUGGAAUUCUCGGGUGCCAA` is recorded as 7.49.

A few entries again (series 3):
For `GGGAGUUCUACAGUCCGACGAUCGGACGGUGCUGGUUUUCUACCUGCUUACUCUUGUUCUCACAGGCAGGGGACCAGCAACCCUAGAUAUUUCUGGAACUUCUUUGACCUGGAAGGAACCUUUGGGAGCUGUGACUCCCUGUGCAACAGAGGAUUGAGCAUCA`, the bound/input enrichment was 0.397 ratio.
`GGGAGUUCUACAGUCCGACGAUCAAGCAGCAGUGGCUGACGCUCUGCUGUUAGGAGACGCCAGGAGCAAGAAGAAGCCUGUGAGAAGGAGAUACGAGCCCUAUGGAAUGUACUCUGAUGAUGAUGCCAACAGUGAUGCCUCCACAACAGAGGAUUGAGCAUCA` has a bound/input enrichment of 0.113 ratio.
For `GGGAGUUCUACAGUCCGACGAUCCAAACGUUGUUGGGAAUAAUUGUGAGGAUGAAGUUUUUGCUGCUGCAGCAGAAGUACCUAGAAUACCUGGAGGAUGGCAAGGUCCUGGAGGCACUUCAAGUUCUACGCUGUGAAUUGACGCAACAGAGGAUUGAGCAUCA`, the bound/input enrichment was 0.215 ratio.
